{"data": "Published values collected from several papers", "14-3-3 protein epsilon": "14-3-3 protein epsilon (Homo sapiens, UniProt P62258)", "Chymotrypsin-C": "Chymotrypsin-C (Homo sapiens, UniProt Q99895)", "Magi2": "Membrane-associated guanylate kinase, WW and PDZ domain-containing protein 2 (Magi2, Mus musculus, UniProt Q9WVQ1)", "note": "Compare with care: the assays were run in different laboratories. “And” joins repeats or separate records; there may be more than shown. ± marks the error that the study gave.", "UniProt Q99895, sequence (whole entry, looked up)": "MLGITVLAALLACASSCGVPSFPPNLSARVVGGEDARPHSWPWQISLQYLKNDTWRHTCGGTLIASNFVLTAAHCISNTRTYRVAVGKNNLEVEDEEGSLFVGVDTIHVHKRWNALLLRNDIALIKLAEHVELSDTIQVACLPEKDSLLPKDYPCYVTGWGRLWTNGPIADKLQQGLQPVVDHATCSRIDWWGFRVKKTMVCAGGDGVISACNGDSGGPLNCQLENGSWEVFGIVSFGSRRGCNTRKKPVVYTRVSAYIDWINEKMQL", "UniProt P62258, sequence (whole entry, looked up)": "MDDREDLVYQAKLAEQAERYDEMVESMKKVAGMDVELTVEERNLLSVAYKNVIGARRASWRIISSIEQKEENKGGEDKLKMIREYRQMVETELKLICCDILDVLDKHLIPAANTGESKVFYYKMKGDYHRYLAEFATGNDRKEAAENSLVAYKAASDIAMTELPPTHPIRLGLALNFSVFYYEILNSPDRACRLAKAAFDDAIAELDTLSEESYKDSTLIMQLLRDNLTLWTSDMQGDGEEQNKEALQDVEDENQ", "UniProt Q9WVQ1, sequence (whole entry, looked up)": "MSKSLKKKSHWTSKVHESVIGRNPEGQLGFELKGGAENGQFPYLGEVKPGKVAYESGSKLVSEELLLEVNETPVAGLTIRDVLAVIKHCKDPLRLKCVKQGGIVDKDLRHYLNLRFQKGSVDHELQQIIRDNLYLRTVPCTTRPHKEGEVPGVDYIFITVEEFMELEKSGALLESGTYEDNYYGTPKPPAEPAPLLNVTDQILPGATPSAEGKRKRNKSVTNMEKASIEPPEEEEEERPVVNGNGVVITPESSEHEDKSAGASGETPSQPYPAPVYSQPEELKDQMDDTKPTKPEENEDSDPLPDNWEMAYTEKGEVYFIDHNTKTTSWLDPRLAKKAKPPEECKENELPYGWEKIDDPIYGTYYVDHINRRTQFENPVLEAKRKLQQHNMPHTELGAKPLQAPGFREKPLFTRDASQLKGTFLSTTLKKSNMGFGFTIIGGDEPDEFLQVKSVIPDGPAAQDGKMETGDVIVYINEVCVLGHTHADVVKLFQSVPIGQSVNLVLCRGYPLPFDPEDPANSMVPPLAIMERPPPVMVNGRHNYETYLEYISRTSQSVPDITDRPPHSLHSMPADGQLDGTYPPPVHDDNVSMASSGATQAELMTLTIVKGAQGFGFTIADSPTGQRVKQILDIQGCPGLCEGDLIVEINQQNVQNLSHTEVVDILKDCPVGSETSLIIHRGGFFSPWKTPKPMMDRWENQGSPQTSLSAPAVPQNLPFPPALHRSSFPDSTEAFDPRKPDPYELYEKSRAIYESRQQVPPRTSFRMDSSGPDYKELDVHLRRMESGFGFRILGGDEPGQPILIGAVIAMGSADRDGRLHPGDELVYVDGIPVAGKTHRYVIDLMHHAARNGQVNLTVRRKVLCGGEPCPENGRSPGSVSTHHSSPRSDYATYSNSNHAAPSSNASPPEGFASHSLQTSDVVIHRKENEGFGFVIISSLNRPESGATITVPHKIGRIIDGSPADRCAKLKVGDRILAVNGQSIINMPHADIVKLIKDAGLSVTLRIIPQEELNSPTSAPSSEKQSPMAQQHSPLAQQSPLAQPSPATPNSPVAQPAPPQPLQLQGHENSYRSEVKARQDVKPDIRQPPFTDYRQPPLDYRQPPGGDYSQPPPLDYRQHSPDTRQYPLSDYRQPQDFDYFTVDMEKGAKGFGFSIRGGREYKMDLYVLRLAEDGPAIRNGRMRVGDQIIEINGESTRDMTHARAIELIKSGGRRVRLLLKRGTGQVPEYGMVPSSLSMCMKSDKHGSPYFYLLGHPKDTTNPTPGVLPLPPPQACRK", "UniProt P33913, sequence (whole entry, looked up)": "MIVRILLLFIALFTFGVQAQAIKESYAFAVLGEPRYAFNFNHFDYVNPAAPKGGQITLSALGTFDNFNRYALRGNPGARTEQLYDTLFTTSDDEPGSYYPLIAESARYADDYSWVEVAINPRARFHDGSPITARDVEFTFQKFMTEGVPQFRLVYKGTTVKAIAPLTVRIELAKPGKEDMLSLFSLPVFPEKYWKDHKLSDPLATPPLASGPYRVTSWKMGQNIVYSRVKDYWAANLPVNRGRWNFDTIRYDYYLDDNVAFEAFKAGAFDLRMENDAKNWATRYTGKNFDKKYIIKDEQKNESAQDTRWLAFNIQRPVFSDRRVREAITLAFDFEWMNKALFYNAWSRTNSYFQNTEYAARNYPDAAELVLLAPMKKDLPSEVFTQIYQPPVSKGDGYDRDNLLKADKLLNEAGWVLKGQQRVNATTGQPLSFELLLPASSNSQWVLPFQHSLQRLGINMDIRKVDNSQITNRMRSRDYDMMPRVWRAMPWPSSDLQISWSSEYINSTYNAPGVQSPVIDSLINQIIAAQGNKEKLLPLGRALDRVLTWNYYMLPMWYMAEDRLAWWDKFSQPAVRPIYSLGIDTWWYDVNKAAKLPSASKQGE", "UniProt Q8RY59, sequence (whole entry, looked up)": "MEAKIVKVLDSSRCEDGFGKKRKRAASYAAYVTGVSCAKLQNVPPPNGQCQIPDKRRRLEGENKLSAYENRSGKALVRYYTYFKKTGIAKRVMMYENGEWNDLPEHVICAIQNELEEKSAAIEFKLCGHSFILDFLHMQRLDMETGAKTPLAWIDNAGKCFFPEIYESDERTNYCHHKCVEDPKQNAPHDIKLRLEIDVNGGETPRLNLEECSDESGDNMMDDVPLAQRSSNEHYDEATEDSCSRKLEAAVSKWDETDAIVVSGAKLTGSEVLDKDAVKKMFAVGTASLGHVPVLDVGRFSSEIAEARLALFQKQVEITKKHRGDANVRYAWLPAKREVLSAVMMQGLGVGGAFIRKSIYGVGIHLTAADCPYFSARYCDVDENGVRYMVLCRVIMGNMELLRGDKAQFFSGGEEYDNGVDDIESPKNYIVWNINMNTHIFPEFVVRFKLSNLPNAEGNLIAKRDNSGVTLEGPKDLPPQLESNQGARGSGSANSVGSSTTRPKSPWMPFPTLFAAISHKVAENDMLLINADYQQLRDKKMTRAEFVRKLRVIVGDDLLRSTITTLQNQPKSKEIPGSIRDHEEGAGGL", "UniProt P53299, sequence (whole entry, looked up)": "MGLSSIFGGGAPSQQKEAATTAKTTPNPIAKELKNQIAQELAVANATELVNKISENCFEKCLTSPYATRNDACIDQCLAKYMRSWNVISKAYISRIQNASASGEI", "UniProt O95619, sequence (whole entry, looked up)": "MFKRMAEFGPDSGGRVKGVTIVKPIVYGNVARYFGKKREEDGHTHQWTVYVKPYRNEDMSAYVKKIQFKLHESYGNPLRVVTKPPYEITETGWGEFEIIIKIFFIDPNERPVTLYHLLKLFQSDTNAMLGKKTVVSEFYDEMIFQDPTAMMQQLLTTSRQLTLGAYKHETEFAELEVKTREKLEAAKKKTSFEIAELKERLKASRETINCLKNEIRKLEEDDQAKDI", "UniProt P52333, sequence (whole entry, looked up)": "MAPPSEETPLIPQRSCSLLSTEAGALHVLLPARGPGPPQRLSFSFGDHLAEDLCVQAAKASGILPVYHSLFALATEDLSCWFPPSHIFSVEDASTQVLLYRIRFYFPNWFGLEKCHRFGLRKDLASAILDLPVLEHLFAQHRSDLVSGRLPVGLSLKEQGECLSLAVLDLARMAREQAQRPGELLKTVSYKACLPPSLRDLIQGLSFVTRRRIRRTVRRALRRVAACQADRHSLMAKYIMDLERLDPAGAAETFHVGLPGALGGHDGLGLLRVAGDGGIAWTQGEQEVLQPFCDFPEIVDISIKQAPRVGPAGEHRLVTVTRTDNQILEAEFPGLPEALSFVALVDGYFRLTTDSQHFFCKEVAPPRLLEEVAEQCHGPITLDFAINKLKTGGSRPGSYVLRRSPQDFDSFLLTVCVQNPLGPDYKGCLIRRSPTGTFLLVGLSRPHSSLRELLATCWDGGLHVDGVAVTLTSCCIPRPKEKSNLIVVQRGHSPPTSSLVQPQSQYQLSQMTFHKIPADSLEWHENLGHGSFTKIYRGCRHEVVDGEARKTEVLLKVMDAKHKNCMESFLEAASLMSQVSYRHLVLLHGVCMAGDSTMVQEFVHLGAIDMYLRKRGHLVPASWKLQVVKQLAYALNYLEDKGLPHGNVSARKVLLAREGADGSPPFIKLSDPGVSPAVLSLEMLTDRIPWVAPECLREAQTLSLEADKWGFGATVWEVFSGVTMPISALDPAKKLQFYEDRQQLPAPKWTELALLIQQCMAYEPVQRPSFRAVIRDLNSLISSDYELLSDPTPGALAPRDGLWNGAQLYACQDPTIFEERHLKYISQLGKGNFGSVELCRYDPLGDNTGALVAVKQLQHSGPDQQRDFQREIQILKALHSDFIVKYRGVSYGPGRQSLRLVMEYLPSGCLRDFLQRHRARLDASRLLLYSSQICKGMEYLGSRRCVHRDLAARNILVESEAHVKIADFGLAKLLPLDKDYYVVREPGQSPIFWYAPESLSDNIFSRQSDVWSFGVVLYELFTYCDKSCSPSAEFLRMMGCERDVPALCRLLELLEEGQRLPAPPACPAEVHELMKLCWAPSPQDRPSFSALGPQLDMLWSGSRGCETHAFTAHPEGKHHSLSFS", "UniProt P57744, sequence (whole entry, looked up)": "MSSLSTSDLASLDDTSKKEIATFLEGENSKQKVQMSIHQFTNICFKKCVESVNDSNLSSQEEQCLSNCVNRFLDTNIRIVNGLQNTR"}
{"SMILES": "CC(=O)N[C@@H](CCCNC(=N)N)C(=O)N[C@H](C(=O)N[C@@H](CCCCN)C(=O)N[C@@H](CO)C(=O)N[C@@H](CCCNC(=N)N)C(=O)N[C@H](C(=O)N[C@@H](Cc1c[nH]c2ccccc12)C(=O)N[C@@H](C)C(=O)N1Cc2ccccc2C[C@H]1C(N)=O)[C@@H](C)OP(=O)(O)O)[C@@H](C)O", "target or system": "14-3-3 protein epsilon", "assay": "binding, SPR", "setting": "pH 7.4", "endpoint": "Kd", "result": "30.9 nM"}
{"SMILES": "CSCC[C@@H]1NC(=O)[C@H](Cc2ccccc2)NC(=O)[C@H]([C@@H](C)O)NC(=O)[C@@H]2CSSC[C@@H]3NC(=O)[C@H]([C@@H](C)O)NC(=O)[C@H](CC(N)=O)NC(=O)[C@H](CSSC[C@@H](C(=O)N[C@@H](CC(=O)O)C(=O)N[C@@H](CCC(N)=O)C(=O)O)NC(=O)[C@H](CC(C)C)NC1=O)NC(=O)[C@H](CCCCN)NC(=O)[C@H](CC(=O)O)NC(=O)[C@H](CCCCN)NC(=O)[C@H](Cc1ccccc1)NC(=O)[C@H]([C@@H](C)O)NC(=O)[C@H]([C@@H](C)O)NC(=O)CNC(=O)[C@@H]1CCCN1C(=O)[C@H](CCC(=O)O)NC(=O)[C@@H](NC(=O)[C@@H](NC(=O)[C@@H](NC(=O)[C@H](CCC(=O)O)NC(=O)[C@H](CO)NC(=O)CN)C(C)C)[C@@H](C)O)CSSC[C@H](NC(=O)[C@H](CCCNC(=N)N)NC3=O)C(=O)NCC(=O)N[C@@H](CO)C(=O)N[C@@H](CC(=O)O)C(=O)NCC(=O)N[C@@H](CCCCN)C(=O)N[C@@H](CO)C(=O)N[C@@H](C)C(=O)N[C@@H](Cc1ccc(O)cc1)C(=O)N2", "target or system": "Chymotrypsin-C", "assay": "cell-free assay, FP", "setting": "pH 8", "endpoint": "Kd", "result": "1.08 nM"}
{"SMILES": "CC(=O)N[C@@H](CCCNC(=N)N)C(=O)N[C@H](C(=O)N[C@@H](CCCCN)C(=O)N[C@@H](CO)C(=O)N[C@@H](CCCNC(=N)N)C(=O)N[C@H](C(=O)N[C@@H](Cc1c[nH]c2ccccc12)C(=O)N[C@@H](C)C(=O)N[C@H](C(N)=O)C(C)C)[C@@H](C)OP(=O)(O)O)[C@@H](C)O", "target or system": "14-3-3 protein epsilon", "assay": "binding, SPR", "setting": "pH 7.4", "endpoint": "Kd", "result": "212 nM"}
{"SMILES": "CC[C@H](C)[C@H](NC(=O)[C@H](C)NC(=O)[C@H](CCCNC(=N)N)NC(=O)[C@H](CCCNC(=N)N)NC(=O)[C@H](Cc1ccc(O)cc1)NC(=O)[C@H](CCC(=O)O)NC(=O)[C@H](CCC(=O)O)NC(=O)[C@H](CCCNC(=N)N)NC(=O)[C@H](CCCNC(=N)N)NC(=O)[C@@H](N)CCCNC(=N)N)C(=O)N[C@@H](CC(N)=O)C(=O)NCC(=O)N[C@@H](CCC(N)=O)C(=O)N[C@@H](CO)C(=O)N[C@@H](CCCNC(=N)N)C(=O)O", "target or system": "Magi2", "assay": "ITC", "setting": "pH 8.0, 25 °C, together with: tandem peptide", "endpoint": "Kd", "result": "4300 ± 1000 nM"}
{"SMILES": "O=C1NC2(CC2)COc2ncc(F)cc2[C@H]2COCCN2c2ccn3ncc1c3n2", "system": "Sprague-Dawley rat, male, serum", "setting": "oral, 10 mg/kg/day, end of recovery, 4-week subacute toxicity", "endpoint": "serum sodium", "result": "145 ± 2 mmol/L"}
{"SMILES": "CSCC[C@@H]1NC(=O)[C@H](C)NC(=O)[C@H](CO)NC(=O)[C@H](CCCCN)NC(=O)CNC(=O)[C@H](CC(=O)O)NC(=O)[C@H](CO)NC(=O)CNC(=O)[C@@H]2CSSC[C@H](NC(=O)[C@@H](NC(=O)[C@@H](NC(=O)[C@H](CCC(=O)O)NC(=O)[C@H](CO)NC(=O)CN)C(C)C)[C@@H](C)O)C(=O)N[C@@H](CCC(=O)O)C(=O)N3CCC[C@H]3C(=O)NCC(=O)N[C@@H]([C@@H](C)O)C(=O)N[C@@H]([C@@H](C)O)C(=O)N[C@@H](Cc3ccccc3)C(=O)N[C@@H](CCCCN)C(=O)N[C@@H](CC(=O)O)C(=O)N[C@@H](CCCCN)C(=O)N[C@H]3CSSC[C@@H](C(=O)N[C@@H](Cc4c[nH]c5ccccc45)C(=O)N[C@@H](CCC(N)=O)C(=O)O)NC(=O)[C@H](CC(C)C)NC(=O)[C@H](CCSC)NC(=O)[C@H](CC(C)C)NC(=O)[C@H](CO)NC(=O)[C@H](CSSC[C@H](NC(=O)[C@H]([C@@H](C)O)NC(=O)[C@H](CC(N)=O)NC3=O)C(=O)N[C@@H](CCCNC(=N)N)C(=O)N2)NC1=O", "target or system": "Chymotrypsin-C", "assay": "cell-free assay, FP", "setting": "pH 8", "endpoint": "Kd", "result": "0.15 nM"}
{"SMILES": "CC(C)C[C@H](NC(=O)[C@H](CC(=O)O)NC(=O)[C@H](CC(=O)O)NC(=O)[C@@H](NC(=O)[C@H](Cc1c[nH]c2ccccc12)NC(=O)CNC(=O)[C@H](CCCNC(=N)N)NC(=O)[C@@H](N)CCCCN)[C@@H](C)O)C(=O)N[C@@H](CS)C(=O)N[C@@H](Cc1ccc(O)cc1)C(=O)NCC(=O)N[C@H](C(=O)NCC(=O)N[C@@H](C)C(=O)O)[C@@H](C)O", "target or system": "TIM13/TIM8 (Saccharomyces cerevisiae, UniProt P53299+P57744)", "assay": "binding, SPR", "setting": "together with: immobilized Tim23 peptides", "endpoint": "Kd", "result": "393000 nM"}
{"SMILES": "CC(C)C[C@@H]1NC(=O)[C@H](CC(C)C)NC(=O)[C@H](CC(C)C)NC(=O)[C@H]([C@@H](C)O)NC(=O)[C@@H]2CSSC[C@@H]3NC(=O)[C@H]([C@@H](C)O)NC(=O)[C@H](CC(N)=O)NC(=O)[C@H](CSSC[C@@H](C(=O)N[C@@H](CC(=O)O)C(=O)N[C@@H](CCC(N)=O)C(=O)O)NC1=O)NC(=O)[C@H](CCCCN)NC(=O)[C@H](CC(=O)O)NC(=O)[C@H](CCCCN)NC(=O)[C@H](Cc1ccccc1)NC(=O)[C@H]([C@@H](C)O)NC(=O)[C@H]([C@@H](C)O)NC(=O)CNC(=O)[C@@H]1CCCN1C(=O)[C@H](CCC(=O)O)NC(=O)[C@@H](NC(=O)[C@@H](NC(=O)[C@@H](NC(=O)[C@H](CCC(=O)O)NC(=O)[C@H](CO)NC(=O)CN)C(C)C)[C@@H](C)O)CSSC[C@H](NC(=O)[C@H](CCCNC(=N)N)NC3=O)C(=O)NCC(=O)N[C@@H](CO)C(=O)N[C@@H](CC(=O)O)C(=O)NCC(=O)N[C@@H](CCCCN)C(=O)N[C@@H](CO)C(=O)N[C@@H](C)C(=O)N[C@@H](Cc1c[nH]c3ccccc13)C(=O)N2", "target or system": "Chymotrypsin-C", "assay": "cell-free assay, FP", "setting": "pH 8", "endpoint": "Kd", "result": "1.72 nM"}
{"SMILES": "CC(=O)NCCCC[C@H](NC(=O)CNC(=O)CNC(=O)[C@@H](NC(=O)[C@H](CO)NC(=O)[C@H](CCCCN)NC(=O)[C@H](CCCNC(=N)N)NC(=O)[C@H](C)NC(=O)[C@@H](NC(=O)[C@H](CCC(N)=O)NC(=O)[C@H](CCCCN)NC(=O)[C@@H](NC(=O)[C@@H](N)CCCNC(=N)N)[C@@H](C)O)[C@@H](C)O)[C@@H](C)O)C(=O)N[C@@H](C)C(=O)N1CCC[C@H]1C(=O)N[C@@H](CCCNC(=N)N)C(=O)N[C@@H](CCCCN)C(=O)N[C@@H](CCC(N)=O)C(=O)O", "target or system": "YEATS domain-containing protein 4, YEATS domain (Homo sapiens, UniProt O95619)", "assay": "isothermal titration calorimetry", "setting": "pH 7.6, 25 °C, together with: histone peptide", "endpoint": "Kd", "result": "120000 ± 5500 nM"}
{"SMILES": "CC[C@H](C)[C@H](NC(=O)[C@H](CCC(=O)O)NC(=O)[C@H](CC(C)C)NC(=O)[C@H](Cc1ccc(O)cc1)NC(=O)[C@H](CCSC)NC(=O)[C@H](CC(=O)O)NC(=O)[C@H](CCC(=O)O)NC(=O)[C@H](CCC(=O)O)NC(=O)[C@H](CC(C)C)NC(=O)[C@@H](N)CC(N)=O)C(=O)N[C@@H](CC(N)=O)C(=O)N[C@@H](CC(=O)O)C(=O)N[C@@H](CC(C)C)C(=O)N[C@@H](CCSC)C(=O)N[C@@H](CCC(=O)O)C(=O)N1CCC[C@H]1C(=O)N[C@@H](CCC(=O)O)C(=O)N1CCC[C@H]1C(=O)N[C@@H](CCC(=O)O)C(=O)N1CCC[C@H]1C(=O)N[C@H](C(=O)O)[C@@H](C)O", "target or system": "RCD1 (Arabidopsis thaliana, UniProt Q8RY59)", "assay": "ITC", "setting": "salt 0 mM", "endpoint": "Kd", "result": "22.7 nM"}
{"SMILES": "CC(C)C[C@H](NC(=O)[C@H](CO)NC(=O)[C@@H]1CCCN1C(=O)[C@H](CCC(N)=O)NC(=O)[C@@H](NC(=O)[C@H](C)NC(=O)[C@H](CCCCN)NC(=O)[C@H](CC(C)C)NC(=O)[C@H](Cc1ccc(O)cc1)NC(=O)[C@H](COP(=O)(O)O)NC(=O)[C@H](CCCNC(=N)N)NC(=O)[C@H](CCCNC(=N)N)NC(=O)[C@H](CCCNC(=N)N)NC(=O)[C@H](C)NC(=O)[C@H](C)N)[C@@H](C)O)C(=O)O", "target or system": "Magi2", "assay": "ITC", "setting": "pH 8.0, 25 °C, together with: tandem peptide", "endpoint": "Kd", "result": "200 ± 20 nM"}
{"SMILES": "CC(C)C[C@@H]1NC(=O)[C@H](CC(C)C)NC(=O)[C@H](CC(N)=O)NC(=O)[C@@H]2CCCN2C(=O)[C@H](CC(C)C)NC(=O)[C@H](CC(C)C)NC(=O)[C@H](CC(C)C)NC(=O)[C@@H](NC(=O)[C@H](CO)NC(=O)[C@H](CC(N)=O)NC(=O)[C@@H](N)C(C)C)CSSC[C@@H](C(=O)NCC(=O)N[C@@H](CC(=O)O)C(=O)N[C@@H](CC(=O)O)C(=O)N[C@@H](CCCCNC(=O)CCCC[C@@H]2SC[C@@H]3NC(=O)N[C@@H]32)C(=O)NCCCCCC(=O)NCCCCCC(=O)NCCCCCC(=O)NCCCCCC(=O)NCCCCCC(=O)N[C@@H](CCCCNC(=O)CCCCc2cn(CCCC[C@H](NC(=O)N[C@@H](CCC(=O)O)C(=O)O)C(=O)O)nn2)C(=O)NCC(N)=O)NC(=O)CNC1=O", "target or system": "FOLH1 (Homo sapiens, UniProt Q04609)", "assay": "bead phagocytosis, ternary complex model fit", "setting": "together with: PSMA 80 pM, FcγRI 800 pM", "endpoint": "Kd", "result": "150 nM"}
{"SMILES": "CC(C)C[C@H](NC(=O)[C@H](CCP(=O)(O)O)NC(=O)[C@@H](NC(=O)[C@@H](NC(=O)[C@H](CCCNC(=N)N)NC(=O)[C@H](CC(C)C)NC(=O)[C@H](CO)NC(=S)Nc1ccc2c(c1)C(=O)OC21c2ccc(O)cc2Oc2cc(O)ccc21)[C@@H](C)O)C(C)C)C(=O)NCC(=O)N[C@@H](C)C(=O)NCC(=O)N[C@@H](C)C(=O)N[C@@H](Cc1c[nH]c2ccccc12)C(=O)N[C@@H](CC(C)C)C(=O)N[C@H](C(=O)N1CCC[C@H]1C(=O)N[C@@H](CCCNC(=N)N)C(=O)O)C(C)C", "target or system": "14-3-3 protein epsilon", "assay": "binding, fluorescence anisotropy", "setting": "pH 7.5, FITC-labelled phosphopeptide titration", "endpoint": "Kd", "result": "56200 nM"}
{"SMILES": "O=C(N[C@@H]1c2ccccc2C[C@H]1N1CCCC1)c1ccc(-c2ccnc3[nH]ccc23)nc1", "target or system": "Tyrosine-protein kinase JAK3, JH1 (JAK3, Homo sapiens, UniProt P52333)", "assay": "binding, competition with immobilised ligand", "endpoint": "Kd", "result": "51.5 nM"}
{"SMILES": "CSCC[C@H](NC=O)C(=O)N[C@@H](CCCNC(=N)N)C(=O)N[C@H](C(=O)NCC(=O)N[C@@H](CC(N)=O)C(=O)N[C@@H](C)C(=O)N[C@@H](CC(N)=O)C(=O)NCC(=O)NCC(=O)N[C@@H](CCCCNC(=S)Nc1ccc2c(c1)C(=O)OC21c2ccc(O)cc2Oc2cc(O)ccc21)C(=O)O)[C@@H](C)O", "target or system": "Uncharacterized protein YejA (yejA, Escherichia coli, UniProt P33913)", "assay": "binding, fluorescence polarisation", "setting": "25 °C, wild type", "endpoint": "Kd", "result": "1310 nM and ~1310 nM"}
{"note": "For quick reference, copied from above:"}
{"SMILES": "CC(C)C[C@H](NC(=O)[C@H](CC(=O)O)NC(=O)[C@H](CC(=O)O)NC(=O)[C@@H](NC(=O)[C@H](Cc1c[nH]c2ccccc12)NC(=O)CNC(=O)[C@H](CCCNC(=N)N)NC(=O)[C@@H](N)CCCCN)[C@@H](C)O)C(=O)N[C@@H](CS)C(=O)N[C@@H](Cc1ccc(O)cc1)C(=O)NCC(=O)N[C@H](C(=O)NCC(=O)N[C@@H](C)C(=O)O)[C@@H](C)O", "target or system": "TIM13/TIM8 (Saccharomyces cerevisiae, UniProt P53299+P57744)", "assay": "binding, SPR", "setting": "together with: immobilized Tim23 peptides", "endpoint": "Kd", "result": "393000 nM"}
